Measured values of several laboratories.
Lines come from different studies, so protocols differ. “And” joins repeats or separate records; there may be more than shown. Numbers after ± are the reported error.

Cc1ncsc1-c1ccc(C(C)NC(=O)C2CC(O)CN2C(=O)C(NC(=O)CCCCCCCCCCN2CCCC(Nc3ncc(Cl)c(Nc4ccccc4S(=O)(=O)C(C)C)n3)C2)C(C)(C)C)cc1 (stereo not drawn)  log2 fold change (22Rv1; RNA-seq, refers to: SLC12A7 mRNA; concentration not given; reference: DMSO): -1
CNS(=O)(=O)Nc1nccc(Cc2c(C)c3ccc(Oc4ncccc4F)cc3oc2=O)c1F  IC50 (BALL-1; cell viability; 7 days): > 1000 nM
COC1CN([C@H]2CC[C@H]([C@@]3(C)Oc4c(Cl)cc(C(=O)NCc5c(SC)cc(C)[nH]c5=O)c(C)c4O3)CC2)C1  log2 fold change (RNA-seq, refers to: SCARF1; human, whole blood; dose not given, 24 h; reference: pretreatment baseline): 1.37
Nc1ncc(-c2cc(-c3cnn(CC(F)(F)F)c3)ncc2F)nc1C(=O)NC1CNCC(F)C1 (stereo not drawn)  remaining binding (MYLK; KINOMEscan; 1 µM; reference: DMSO control): 100%
COc1cc2c(NC3CCN(C(C)C)CC3)cc(N3CCOCC3)nc2cc1OCCCN1CCCC1  normalised protein abundance (TMT quantitative proteomics, refers to: GOT1 (cytoplasmic); APP AD model mice, hippocampus; dose not given): -0.0469 and 0.022 and 0.00218 and 0.0105 and 0.0128 and 0.0497 and -0.0503 and -0.0198
c1ccc(-c2n[nH]cc2-c2ccnc3ccccc23)nc1  log2 fold change (KIN3 (Candida albicans); kinase binding, MIB/MS competition; Candida albicans lysate; 1 µM; reference: DMSO): -0.01
COc1cc(O)ccc1CCC(c1ccc(O)cc1)c1cc2c(c(C)c1O)OC(c1ccc(O)cc1)CC2 (mixture of isomers)  lipid mediator level (refers to: PGE2; human blood; 3 µM, added: Escherichia coli stimulation): 887 ± 418 pg/mL blood
COc1ccccc1-c1ccncc1C(=O)Nc1nnc(OCc2ccc(Cl)cc2)s1  colony survival (MDA-MB-436 BRCA1-mutant; colony formation; 0.75 µM; reference: vehicle (DMSO)): 71.5%
CN1CCCNC(=O)c2cccc(c2)C(=O)NCCCN(C)CCCNc2cccc3c2C(=O)c2cccc(c2C3=O)NCCC1  log2 fold change (SAS; RNA-Seq, refers to: TTC32 mRNA; 1 µM, 6 h; reference: untreated cells): 1.31
C=CC(=O)Nc1cccc(Cn2ncc3cnc(Nc4cnn(CCOC)c4)nc32)c1  percent of control (CDC2L5 human; binding, KINOMEscan; 100 nM; lower = stronger binding): 79%
C=CC(=O)N1[C@@H](c2ccc3c(c2)OCO3)c2[nH]c3ccccc3c2C[C@H]1C(=O)N1CCN(C)CC1  log2 fold change (CCNE1 WT-3xFLAG:CDK2 complex; co-IP TMT proteomics, refers to: RBL2; HEK-293T; 20 µM, 6 h; reference: DMSO): 0.07
CCN(CC)CC(=O)Nc1cccc(-n2cc(-c3ccc4ccc(-c5cn(-c6cccc(NC(=O)CN(CC)CC)c6)nn5)cc4c3)nn2)c1  fold regulation (RCC4; PCR angiogenesis array, refers to: MMP2; 5 x IC50, 6 h, normoxia; reference: untreated): 1.57

For quick reference, copied from above:
COc1cc2c(NC3CCN(C(C)C)CC3)cc(N3CCOCC3)nc2cc1OCCCN1CCCC1  normalised protein abundance (TMT quantitative proteomics, refers to: GOT1 (cytoplasmic); APP AD model mice, hippocampus; dose not given): -0.0469 and 0.022 and 0.00218 and 0.0105 and 0.0128 and 0.0497 and -0.0503 and -0.0198
COc1ccccc1-c1ccncc1C(=O)Nc1nnc(OCc2ccc(Cl)cc2)s1  colony survival (MDA-MB-436 BRCA1-mutant; colony formation; 0.75 µM; reference: vehicle (DMSO)): 71.5%
